# Experimental data collected from several papers.
# Every numbered part comes from another study and shows a few of its results, in no order.
# Sequence of UniProt P42336 (whole entry, unmodified, looked up): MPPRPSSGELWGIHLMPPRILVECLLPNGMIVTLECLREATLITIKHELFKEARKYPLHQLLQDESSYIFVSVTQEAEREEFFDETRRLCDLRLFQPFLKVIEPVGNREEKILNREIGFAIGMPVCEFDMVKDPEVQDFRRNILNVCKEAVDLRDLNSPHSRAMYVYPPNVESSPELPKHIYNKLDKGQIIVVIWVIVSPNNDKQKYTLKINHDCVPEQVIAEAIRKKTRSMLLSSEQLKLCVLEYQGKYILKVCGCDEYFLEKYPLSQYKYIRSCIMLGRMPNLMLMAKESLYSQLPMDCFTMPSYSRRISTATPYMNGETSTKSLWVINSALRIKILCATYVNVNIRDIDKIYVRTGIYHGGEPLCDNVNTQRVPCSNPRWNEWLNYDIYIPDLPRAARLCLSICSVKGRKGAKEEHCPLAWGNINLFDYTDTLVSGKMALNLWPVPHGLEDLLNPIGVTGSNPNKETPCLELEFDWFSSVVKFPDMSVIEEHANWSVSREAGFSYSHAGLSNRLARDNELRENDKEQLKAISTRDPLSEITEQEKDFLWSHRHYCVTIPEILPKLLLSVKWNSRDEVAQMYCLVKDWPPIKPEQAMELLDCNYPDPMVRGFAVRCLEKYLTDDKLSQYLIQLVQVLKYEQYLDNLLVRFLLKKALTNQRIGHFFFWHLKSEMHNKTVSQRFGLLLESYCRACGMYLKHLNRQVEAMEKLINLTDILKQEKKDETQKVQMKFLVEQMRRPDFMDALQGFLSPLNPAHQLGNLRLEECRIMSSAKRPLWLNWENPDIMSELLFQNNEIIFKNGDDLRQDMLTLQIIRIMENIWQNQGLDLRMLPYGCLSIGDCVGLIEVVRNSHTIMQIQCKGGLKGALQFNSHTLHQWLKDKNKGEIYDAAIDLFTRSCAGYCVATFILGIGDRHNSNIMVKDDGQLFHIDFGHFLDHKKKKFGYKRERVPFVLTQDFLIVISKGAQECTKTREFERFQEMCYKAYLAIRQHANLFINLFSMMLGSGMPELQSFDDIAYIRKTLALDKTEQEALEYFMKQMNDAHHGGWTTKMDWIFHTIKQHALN
# Sequence of UniProt Q9UQ88 (whole entry, looked up): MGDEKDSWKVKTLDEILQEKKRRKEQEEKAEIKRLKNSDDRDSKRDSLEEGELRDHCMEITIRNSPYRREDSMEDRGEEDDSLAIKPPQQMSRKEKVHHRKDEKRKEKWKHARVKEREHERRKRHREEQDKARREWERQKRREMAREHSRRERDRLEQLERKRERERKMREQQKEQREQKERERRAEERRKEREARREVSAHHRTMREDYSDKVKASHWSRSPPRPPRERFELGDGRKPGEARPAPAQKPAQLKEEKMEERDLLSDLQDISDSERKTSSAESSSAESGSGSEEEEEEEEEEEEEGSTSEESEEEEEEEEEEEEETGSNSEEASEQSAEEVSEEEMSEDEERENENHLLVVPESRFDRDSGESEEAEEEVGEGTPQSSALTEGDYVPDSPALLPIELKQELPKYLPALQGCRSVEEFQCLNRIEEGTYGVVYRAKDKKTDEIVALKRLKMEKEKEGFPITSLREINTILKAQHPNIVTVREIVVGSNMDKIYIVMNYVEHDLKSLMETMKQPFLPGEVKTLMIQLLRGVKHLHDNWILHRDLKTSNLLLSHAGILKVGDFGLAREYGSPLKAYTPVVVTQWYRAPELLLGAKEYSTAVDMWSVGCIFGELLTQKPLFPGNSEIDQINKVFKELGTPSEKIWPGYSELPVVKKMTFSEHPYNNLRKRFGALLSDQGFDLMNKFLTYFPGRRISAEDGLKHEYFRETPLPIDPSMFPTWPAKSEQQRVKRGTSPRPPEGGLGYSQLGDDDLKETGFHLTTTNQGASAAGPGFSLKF
# Sequence of UniProt Q15569 (whole entry, looked up): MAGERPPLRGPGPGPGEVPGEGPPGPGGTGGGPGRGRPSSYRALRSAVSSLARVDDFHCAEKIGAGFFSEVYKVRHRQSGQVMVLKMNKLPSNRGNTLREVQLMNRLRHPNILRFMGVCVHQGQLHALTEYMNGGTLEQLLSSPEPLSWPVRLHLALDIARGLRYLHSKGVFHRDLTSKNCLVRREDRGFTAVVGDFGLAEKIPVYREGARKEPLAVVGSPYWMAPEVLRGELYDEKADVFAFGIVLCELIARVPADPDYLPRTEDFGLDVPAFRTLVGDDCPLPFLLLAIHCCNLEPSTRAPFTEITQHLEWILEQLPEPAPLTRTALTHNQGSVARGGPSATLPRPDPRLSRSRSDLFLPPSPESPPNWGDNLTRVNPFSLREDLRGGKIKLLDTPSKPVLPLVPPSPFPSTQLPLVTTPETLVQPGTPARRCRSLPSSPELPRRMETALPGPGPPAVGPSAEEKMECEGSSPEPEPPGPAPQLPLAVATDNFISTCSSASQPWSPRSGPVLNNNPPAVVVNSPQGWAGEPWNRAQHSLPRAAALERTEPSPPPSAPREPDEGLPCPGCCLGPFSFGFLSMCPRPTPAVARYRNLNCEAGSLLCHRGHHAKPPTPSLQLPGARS

# Sample 1
# Compound: O=C(O)[C@H]1[C@H](Cn2nnc3ccccc3c2=O)CC[C@@H]1C(=O)c1ccc(OCCC2CCOCC2)cc1
# Technique: competition with immobilised ligand
# Concentration: 1 µM
target,read-out,remaining binding [%]
"Cyclin-dependent kinase 11A (CDK11A, Homo sapiens, UniProt Q9UQ88)",binding,92
"Tyrosine-protein kinase JAK2, JH1 (JAK2, Homo sapiens, UniProt O60674)",cell-free assay,75
"Serine/threonine-protein kinase 4 (STK4, Homo sapiens, UniProt Q13043)",cell-free assay,98
"Cyclin-G-associated kinase (GAK, Homo sapiens, UniProt O14976)",cell-free assay,100
"Serine/threonine-protein kinase 3 (STK3, Homo sapiens, UniProt Q13188)",cell-free assay,91
"Mitogen-activated protein kinase kinase kinase 14 (MAP3K14, Homo sapiens, UniProt Q99558)",cell-free assay,85
"Serine/threonine-protein kinase ULK1 (ULK1, Homo sapiens, UniProt O75385)",cell-free assay,95
"Tyrosine-protein kinase Fyn (FYN, Homo sapiens, UniProt P06241)",cell-free assay,100
"Mitogen-activated protein kinase kinase kinase kinase 4 (MAP4K4, Homo sapiens, UniProt O95819)",cell-free assay,91
"Epithelial discoidin domain-containing receptor 1 (DDR1, Homo sapiens, UniProt Q08345)",cell-free assay,100
"RAF proto-oncogene serine/threonine-protein kinase (RAF1, Homo sapiens, UniProt P04049)",cell-free assay,91
"Serine/threonine-protein kinase TNNI3K (TNNI3K, Homo sapiens, UniProt Q59H18)",cell-free assay,100
"Phosphatidylinositol 4,5-bisphosphate 3-kinase catalytic subunit alpha isoform (PIK3CA, Homo sapiens, UniProt P42336, C420R)",cell-free assay,100
"Tyrosine-protein kinase Lyn (LYN, Homo sapiens, UniProt P07948)",cell-free assay,92
"Leucine-rich repeat serine/threonine-protein kinase 2 (LRRK2, Homo sapiens, UniProt Q5S007)",cell-free assay,90
"Citron Rho-interacting kinase (CIT, Homo sapiens, UniProt O14578)",cell-free assay,77
"Proto-oncogene tyrosine-protein kinase Src (SRC, Homo sapiens, UniProt P12931)",cell-free assay,89

# Sample 2
# SMILES: CO[C@@H]1[C@H](N(C)C(=O)c2ccccc2)C[C@H]2O[C@]1(C)n1c3ccccc3c3c4c(c5c6ccccc6n2c5c31)C(=O)NC4
# Read-out: enzyme activity
# Action: inhibitor
# Concentration: 1 µM
target,inhibition [%]
"Serine/threonine-protein kinase RIO1 (RIOK1, Homo sapiens, UniProt Q9BRS2)",99
"Serine/threonine-protein kinase Nek10 (NEK10, Homo sapiens, UniProt Q6ZWH5)",15
"Serine/threonine-protein kinase 38-like (STK38L, Homo sapiens, UniProt Q9Y2H1)",0
"Dual specificity testis-specific protein kinase 1 (TESK1, Homo sapiens, UniProt Q15569)",0
"Phosphatidylinositol 4,5-bisphosphate 3-kinase catalytic subunit alpha isoform (PIK3CA, Homo sapiens, UniProt P42336, I800L)",0
"Testis-specific serine/threonine-protein kinase 3 (TSSK3, Homo sapiens, UniProt Q96PN8)",41
"Serine/threonine-protein kinase pim-1 (PIM1, Homo sapiens, UniProt P11309)",35

# Sample 3
# Cell line: mouse MPNST tumor cells
# Technique: high-content nuclear imaging
# Refers to: cell number
# Concentration: 10 µM
# Time: 12 h
# Notes: mean of 2 replicates
# Reference: plate mean
# Reading: higher = more cells
Compound,nuclei count [z-score]
COc1cc(Nc2ccnc3ccc(Br)cc23)cc(OC)c1OC,-4.57
Cc1nnsc1C(=O)Nc1ccc(-n2nc(C(F)(F)F)cc2C(F)(F)F)cc1,1.07
COc1cc2c(Nc3ccc(NC(=O)c4ccccc4)cc3)ncnc2cc1OCCCN1CCOCC1,-4.84
CN1CCC[C@@H]1Cc1c[nH]c2ccc(CCS(=O)(=O)c3ccccc3)cc12,3.11
Cc1cccc(N(C)C(=S)Oc2ccc3ccccc3c2)c1,1.61
Cn1ccnc1S,0.193
Cc1ccc(C(=O)COC(=O)c2cccc(NC(=O)c3ccc([N+](=O)[O-])cc3[N+](=O)[O-])c2)cc1,2.36

# Sample 4
# Target: DNA polymerase theta, ATPase domain (POLQ, Homo sapiens, UniProt O75417)
# Sequence of UniProt O75417 (whole entry, unmodified, looked up): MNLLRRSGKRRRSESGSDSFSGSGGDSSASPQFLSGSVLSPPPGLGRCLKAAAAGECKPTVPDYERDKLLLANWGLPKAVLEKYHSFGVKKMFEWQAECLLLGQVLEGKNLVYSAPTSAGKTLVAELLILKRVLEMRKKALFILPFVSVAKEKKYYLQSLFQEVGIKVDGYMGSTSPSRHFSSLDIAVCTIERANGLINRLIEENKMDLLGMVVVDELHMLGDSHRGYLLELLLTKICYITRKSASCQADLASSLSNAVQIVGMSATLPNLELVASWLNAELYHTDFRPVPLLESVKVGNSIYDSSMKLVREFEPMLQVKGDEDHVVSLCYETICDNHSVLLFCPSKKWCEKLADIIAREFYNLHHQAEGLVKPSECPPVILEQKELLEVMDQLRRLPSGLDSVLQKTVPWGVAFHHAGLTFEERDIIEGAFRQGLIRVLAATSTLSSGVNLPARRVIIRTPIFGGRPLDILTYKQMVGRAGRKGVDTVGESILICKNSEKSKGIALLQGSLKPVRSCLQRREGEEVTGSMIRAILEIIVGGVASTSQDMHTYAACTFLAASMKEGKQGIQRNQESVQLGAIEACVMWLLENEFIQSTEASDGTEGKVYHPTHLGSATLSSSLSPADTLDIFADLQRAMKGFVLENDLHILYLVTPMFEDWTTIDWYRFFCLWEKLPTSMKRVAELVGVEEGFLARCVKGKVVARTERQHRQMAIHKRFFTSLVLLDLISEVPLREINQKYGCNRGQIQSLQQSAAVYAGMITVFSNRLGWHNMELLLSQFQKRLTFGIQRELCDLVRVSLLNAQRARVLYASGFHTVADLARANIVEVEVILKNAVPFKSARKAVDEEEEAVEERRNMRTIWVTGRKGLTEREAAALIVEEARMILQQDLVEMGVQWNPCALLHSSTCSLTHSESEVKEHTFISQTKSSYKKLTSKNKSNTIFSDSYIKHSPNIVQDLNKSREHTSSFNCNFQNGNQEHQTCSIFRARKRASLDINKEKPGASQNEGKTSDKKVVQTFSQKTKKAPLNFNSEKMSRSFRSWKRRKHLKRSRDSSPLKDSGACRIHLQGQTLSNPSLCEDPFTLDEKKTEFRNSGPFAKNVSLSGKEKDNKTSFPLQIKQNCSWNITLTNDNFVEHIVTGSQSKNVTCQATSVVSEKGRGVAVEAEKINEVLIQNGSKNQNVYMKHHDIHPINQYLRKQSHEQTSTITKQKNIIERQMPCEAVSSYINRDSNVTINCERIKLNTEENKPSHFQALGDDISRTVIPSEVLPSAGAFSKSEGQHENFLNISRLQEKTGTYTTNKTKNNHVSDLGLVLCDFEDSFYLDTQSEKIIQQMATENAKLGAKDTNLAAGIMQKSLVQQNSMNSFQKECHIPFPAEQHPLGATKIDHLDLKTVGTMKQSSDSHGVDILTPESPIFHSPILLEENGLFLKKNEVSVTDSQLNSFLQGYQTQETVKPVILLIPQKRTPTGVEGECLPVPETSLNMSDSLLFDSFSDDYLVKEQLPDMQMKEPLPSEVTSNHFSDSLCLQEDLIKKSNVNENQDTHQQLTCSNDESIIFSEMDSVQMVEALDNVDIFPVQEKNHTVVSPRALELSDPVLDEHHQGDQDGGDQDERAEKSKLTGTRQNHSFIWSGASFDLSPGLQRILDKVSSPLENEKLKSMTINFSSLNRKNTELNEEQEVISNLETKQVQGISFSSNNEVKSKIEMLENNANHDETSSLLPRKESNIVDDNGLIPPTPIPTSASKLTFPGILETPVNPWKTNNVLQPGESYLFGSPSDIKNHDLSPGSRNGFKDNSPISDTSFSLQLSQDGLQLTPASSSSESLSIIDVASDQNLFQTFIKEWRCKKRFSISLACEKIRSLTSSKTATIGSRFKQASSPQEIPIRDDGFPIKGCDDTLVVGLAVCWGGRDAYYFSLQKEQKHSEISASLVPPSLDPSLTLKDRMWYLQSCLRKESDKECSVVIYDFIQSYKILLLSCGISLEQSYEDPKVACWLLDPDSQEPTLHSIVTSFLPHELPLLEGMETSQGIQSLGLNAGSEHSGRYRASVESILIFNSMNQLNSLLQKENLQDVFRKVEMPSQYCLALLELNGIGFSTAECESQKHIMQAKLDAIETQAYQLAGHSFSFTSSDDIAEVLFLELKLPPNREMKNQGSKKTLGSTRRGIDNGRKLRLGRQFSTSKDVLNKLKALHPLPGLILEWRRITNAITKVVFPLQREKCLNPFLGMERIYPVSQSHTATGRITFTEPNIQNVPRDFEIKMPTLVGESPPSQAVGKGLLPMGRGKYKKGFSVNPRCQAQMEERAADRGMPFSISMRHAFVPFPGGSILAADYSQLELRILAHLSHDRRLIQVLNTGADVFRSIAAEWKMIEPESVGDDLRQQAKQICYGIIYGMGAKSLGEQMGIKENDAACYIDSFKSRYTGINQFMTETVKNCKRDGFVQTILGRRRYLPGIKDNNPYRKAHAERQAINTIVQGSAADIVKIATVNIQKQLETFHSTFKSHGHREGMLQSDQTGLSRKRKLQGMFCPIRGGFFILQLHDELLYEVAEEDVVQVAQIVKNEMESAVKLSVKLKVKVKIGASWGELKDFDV
# Read-out: enzyme activity
# Action: inhibitor
# Concentration: 77 µM
# Reference: untreated
Compound,remaining activity [%]
CC1=NN(c2ccccc2)C(=O)C1,98.9
CCN(CC)Cc1ccc2cc(COC(=O)Nc3ccc(C(=O)NO)cc3)ccc2c1,101
COc1ccc(C(Cl)=C(c2ccc(OC)cc2)c2ccc(OC)cc2)cc1,103
O=C(O)CCNC(=O)c1ccc(/N=N/c2ccc(O)c(C(=O)O)c2)cc1,93.8
Nc1ncnc2c1c(-c1cccc(OCc3ccccc3)c1)cn2C1CC(CN2CCCC2)C1 (stereo in doubt),98.8
CCOc1cc([C@@H](CS(C)(=O)=O)N2C(=O)c3cccc(NC(C)=O)c3C2=O)ccc1OC,97

# For quick reference, copied from above (sample 4):
Compound,remaining activity [%]
CCN(CC)Cc1ccc2cc(COC(=O)Nc3ccc(C(=O)NO)cc3)ccc2c1,101
COc1ccc(C(Cl)=C(c2ccc(OC)cc2)c2ccc(OC)cc2)cc1,103
O=C(O)CCNC(=O)c1ccc(/N=N/c2ccc(O)c(C(=O)O)c2)cc1,93.8
CC1=NN(c2ccccc2)C(=O)C1,98.9
Nc1ncnc2c1c(-c1cccc(OCc3ccccc3)c1)cn2C1CC(CN2CCCC2)C1 (stereo in doubt),98.8
